Results pooled from the literature.
Numbers after ± are the reported error.

CCCCCCCCCCC(=O)O[C@H]1CC[C@H]2[C@H]3[C@H]([C@@H](C)C[C@]12C)[C@H]1CCC(=O)C=C1C[C@H]3C — result for DMA level: “not detected” (human serum; 300 ng/mL, NaF 100 mg/mL).
CN/C(=N\[N+](=O)[O-])NCc1cnc(Cl)s1 gave a concentration of 0.17 mg/kg dry soil (soil; 28 days, nominal 0.37).
With C#Cc1ccc2c(c1)C(c1ccccn1)=NCc1c(-c3cnco3)ncn1-2.Cl the solubility was 4420 µg/mL (DMSO; 24 h, 25 °C, thermodynamic equilibrium).
O=C1c2c(O)c(=O)ccn2N([C@@H]2c3ccccc3SCc3c2ccc(F)c3F)[C@@H]2COCCN12 gave a plasma concentration of 5.72 ng/mL (BALB/c mice, plasma; oral, 1.5 mg/kg baloxavir marboxil, 4 h).
For COc1cc2c(Oc3ccc4[nH]c(C)cc4c3F)ccnc2cc1OCC1(N)CC1, “influenza-like illness incidence” read 9.1% (paediatric refractory sarcoma patients; 12 mg).
COc1cccc(C2(O)CCCCC2CN(C)C)c1 (centres unmarked) gave a peripheral volume of 0.471 L (joint PK model; human, whole blood; oral, dose not given, one-compartment metabolite model).
For Cc1ncc2n1-c1ccc(Cl)cc1C(c1ccccc1F)=NC2, the MRT was 15.3 ± 2.5 min (wild-type mice, plasma; intravenous, 0.3 mg/kg, CMC pretreatment 14 days).
Under “List of Complaints score”, CCN(CC)C(=O)[C@@H]1C=C2c3cccc4[nH]cc(c34)C[C@H]2N(C)C1 is recorded as 0 (refers to: hot flashes; healthy volunteers; dose not given, 12 to 24 h; relative to: placebo, direction not given).

A few entries again:
O=C1c2c(O)c(=O)ccn2N([C@@H]2c3ccccc3SCc3c2ccc(F)c3F)[C@@H]2COCCN12 gave a plasma concentration of 5.72 ng/mL (BALB/c mice, plasma; oral, 1.5 mg/kg baloxavir marboxil, 4 h).
